Values quoted from earlier work, collected from citations in different studies.
Lines come from different studies, so protocols differ. ± gives the spread as reported.
Chain of UniProt P41143 (whole entry, looked up): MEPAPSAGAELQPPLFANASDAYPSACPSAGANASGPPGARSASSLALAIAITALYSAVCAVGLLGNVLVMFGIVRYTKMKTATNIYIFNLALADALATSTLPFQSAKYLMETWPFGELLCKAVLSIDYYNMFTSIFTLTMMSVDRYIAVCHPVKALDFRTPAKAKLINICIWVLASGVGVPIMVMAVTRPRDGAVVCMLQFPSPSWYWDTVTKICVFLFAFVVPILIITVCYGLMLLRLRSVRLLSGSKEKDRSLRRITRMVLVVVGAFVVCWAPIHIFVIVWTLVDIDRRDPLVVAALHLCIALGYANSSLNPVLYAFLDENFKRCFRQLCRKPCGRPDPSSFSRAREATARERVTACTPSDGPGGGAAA
Chain of UniProt P35372 (whole entry, looked up): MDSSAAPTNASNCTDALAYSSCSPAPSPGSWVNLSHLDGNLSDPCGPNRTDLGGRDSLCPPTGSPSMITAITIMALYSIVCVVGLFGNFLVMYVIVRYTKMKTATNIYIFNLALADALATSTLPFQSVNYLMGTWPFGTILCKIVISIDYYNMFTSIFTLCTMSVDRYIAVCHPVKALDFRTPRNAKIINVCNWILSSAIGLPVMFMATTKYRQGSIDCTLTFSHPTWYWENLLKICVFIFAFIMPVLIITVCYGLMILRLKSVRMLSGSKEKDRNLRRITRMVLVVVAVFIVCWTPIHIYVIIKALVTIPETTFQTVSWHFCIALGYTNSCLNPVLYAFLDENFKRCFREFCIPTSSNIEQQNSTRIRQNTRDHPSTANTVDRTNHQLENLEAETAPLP
Chain of UniProt P22303 (whole entry, looked up): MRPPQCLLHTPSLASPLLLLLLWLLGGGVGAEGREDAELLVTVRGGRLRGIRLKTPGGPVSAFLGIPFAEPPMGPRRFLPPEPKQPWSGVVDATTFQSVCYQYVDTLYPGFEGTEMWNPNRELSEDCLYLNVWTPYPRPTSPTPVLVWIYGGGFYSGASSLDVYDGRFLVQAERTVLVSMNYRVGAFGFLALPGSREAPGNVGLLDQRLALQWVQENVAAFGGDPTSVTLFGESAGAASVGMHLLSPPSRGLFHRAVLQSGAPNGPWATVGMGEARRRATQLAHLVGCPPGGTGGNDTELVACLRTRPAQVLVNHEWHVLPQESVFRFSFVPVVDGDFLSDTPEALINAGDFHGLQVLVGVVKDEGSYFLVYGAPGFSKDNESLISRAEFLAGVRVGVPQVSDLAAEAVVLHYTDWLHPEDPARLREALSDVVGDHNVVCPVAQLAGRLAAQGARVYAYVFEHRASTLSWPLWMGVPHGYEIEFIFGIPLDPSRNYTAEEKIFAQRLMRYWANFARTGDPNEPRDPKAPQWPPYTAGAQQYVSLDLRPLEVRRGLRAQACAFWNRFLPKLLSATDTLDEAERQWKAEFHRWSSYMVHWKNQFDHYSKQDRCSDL
Chain of UniProt P97266 (whole entry, looked up): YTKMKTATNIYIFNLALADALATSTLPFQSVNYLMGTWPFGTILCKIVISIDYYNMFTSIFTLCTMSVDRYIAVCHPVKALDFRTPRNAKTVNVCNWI
Chain of UniProt P21554 (whole entry, looked up): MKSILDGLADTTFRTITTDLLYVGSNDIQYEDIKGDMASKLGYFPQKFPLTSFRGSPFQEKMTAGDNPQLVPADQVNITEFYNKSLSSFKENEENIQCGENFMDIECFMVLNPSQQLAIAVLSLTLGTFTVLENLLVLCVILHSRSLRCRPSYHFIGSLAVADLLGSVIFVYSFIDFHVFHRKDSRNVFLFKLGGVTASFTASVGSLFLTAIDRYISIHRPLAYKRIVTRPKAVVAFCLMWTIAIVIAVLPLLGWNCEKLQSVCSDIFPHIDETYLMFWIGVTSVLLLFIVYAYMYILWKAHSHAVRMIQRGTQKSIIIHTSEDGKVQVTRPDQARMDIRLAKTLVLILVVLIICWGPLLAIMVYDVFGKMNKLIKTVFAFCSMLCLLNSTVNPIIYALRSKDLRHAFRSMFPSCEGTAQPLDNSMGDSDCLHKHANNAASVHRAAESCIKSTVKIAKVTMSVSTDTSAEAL
Chain of UniProt Q12908 (whole entry, looked up): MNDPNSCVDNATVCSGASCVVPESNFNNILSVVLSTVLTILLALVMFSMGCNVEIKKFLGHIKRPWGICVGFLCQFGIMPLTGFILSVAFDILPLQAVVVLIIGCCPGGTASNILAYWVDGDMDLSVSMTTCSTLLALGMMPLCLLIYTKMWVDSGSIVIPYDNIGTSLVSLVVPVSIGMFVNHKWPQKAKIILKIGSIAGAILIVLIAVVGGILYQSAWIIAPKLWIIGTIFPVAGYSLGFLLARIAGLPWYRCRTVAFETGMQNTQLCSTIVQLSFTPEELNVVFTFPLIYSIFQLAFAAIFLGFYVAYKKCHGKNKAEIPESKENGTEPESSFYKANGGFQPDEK
Chain of UniProt P46098 (whole entry, looked up): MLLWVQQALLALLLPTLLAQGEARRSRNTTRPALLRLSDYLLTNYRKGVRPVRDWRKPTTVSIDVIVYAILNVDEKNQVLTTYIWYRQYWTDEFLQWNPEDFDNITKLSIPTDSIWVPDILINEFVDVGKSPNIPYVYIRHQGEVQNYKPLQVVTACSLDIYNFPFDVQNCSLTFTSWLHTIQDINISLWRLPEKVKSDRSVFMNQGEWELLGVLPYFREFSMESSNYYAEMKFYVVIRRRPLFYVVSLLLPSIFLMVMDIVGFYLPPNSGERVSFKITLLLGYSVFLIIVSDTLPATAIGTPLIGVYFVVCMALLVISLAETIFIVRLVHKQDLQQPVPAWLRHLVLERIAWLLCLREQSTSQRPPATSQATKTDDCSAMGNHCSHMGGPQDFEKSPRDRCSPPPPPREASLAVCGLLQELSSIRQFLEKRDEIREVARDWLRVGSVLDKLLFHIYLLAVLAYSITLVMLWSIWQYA
Chain of UniProt P33533 (whole entry, looked up): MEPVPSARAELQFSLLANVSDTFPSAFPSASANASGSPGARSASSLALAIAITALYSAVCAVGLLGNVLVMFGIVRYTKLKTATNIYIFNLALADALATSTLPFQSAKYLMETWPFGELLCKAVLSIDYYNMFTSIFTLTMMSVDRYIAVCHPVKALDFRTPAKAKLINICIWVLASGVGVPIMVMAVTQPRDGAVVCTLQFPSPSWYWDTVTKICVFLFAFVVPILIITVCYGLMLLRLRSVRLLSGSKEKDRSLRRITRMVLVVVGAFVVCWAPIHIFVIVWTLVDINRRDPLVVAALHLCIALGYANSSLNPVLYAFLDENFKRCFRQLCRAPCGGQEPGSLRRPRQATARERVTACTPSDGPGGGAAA
Chain of UniProt O95264 (whole entry, looked up): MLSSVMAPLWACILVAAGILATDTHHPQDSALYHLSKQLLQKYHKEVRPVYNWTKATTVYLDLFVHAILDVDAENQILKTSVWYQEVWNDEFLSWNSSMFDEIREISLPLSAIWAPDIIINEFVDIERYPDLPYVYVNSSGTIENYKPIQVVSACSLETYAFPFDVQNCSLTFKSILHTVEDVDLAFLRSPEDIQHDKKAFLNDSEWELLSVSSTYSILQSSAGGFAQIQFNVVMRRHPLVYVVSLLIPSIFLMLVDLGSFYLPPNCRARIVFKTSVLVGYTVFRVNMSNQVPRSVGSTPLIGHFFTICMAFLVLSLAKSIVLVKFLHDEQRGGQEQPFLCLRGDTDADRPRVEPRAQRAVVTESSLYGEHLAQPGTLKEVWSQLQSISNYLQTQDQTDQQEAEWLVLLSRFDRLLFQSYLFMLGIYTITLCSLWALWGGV
Chain of UniProt P15907 (whole entry, looked up): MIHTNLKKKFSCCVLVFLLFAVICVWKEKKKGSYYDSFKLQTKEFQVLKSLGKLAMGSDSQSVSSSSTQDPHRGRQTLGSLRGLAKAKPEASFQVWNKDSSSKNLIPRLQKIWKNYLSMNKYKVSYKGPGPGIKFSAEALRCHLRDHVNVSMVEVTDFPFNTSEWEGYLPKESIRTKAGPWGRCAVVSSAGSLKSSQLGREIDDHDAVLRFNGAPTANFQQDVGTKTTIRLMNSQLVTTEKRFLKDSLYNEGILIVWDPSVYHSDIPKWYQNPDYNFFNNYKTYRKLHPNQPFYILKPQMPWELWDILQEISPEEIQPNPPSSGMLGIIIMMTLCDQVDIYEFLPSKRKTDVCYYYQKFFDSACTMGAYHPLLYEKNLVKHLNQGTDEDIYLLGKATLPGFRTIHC
Chain of UniProt P25084 (whole entry, looked up): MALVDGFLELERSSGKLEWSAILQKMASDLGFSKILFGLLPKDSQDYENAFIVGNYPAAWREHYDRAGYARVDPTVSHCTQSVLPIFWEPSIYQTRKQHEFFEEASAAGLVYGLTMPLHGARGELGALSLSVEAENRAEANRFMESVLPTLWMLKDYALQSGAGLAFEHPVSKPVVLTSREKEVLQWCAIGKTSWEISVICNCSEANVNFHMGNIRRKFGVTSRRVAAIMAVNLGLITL
Chain of UniProt P61073 (whole entry, looked up): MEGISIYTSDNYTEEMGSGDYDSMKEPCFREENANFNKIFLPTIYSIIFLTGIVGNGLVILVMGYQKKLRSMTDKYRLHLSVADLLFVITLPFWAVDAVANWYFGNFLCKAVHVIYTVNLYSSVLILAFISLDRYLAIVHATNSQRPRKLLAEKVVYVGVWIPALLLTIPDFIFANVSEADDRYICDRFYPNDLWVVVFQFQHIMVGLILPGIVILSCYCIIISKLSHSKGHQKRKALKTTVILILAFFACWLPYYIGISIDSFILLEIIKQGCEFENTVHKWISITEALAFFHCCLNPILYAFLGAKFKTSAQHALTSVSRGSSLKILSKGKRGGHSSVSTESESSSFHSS

SMILES | target | assay | system | setting | how to read | measurement | result
N[C@@H](CCSC[C@H](N)C(=O)O)C(=O)O | cystathionine beta-synthase | substrate |  |  |  | Km | ~83 µM
O=C(CCCCCCCCCN=C=S)CC(=O)N[C@H]1CCOC1=O | lasR (Pseudomonas aeruginosa, UniProt P25084) | partial agonist |  |  |  | Emax | ~40%
CCCCCC1=C(NCC)C(=O)C(C/C=C(\C)CCC=C(C)C)=C(O)C1=O | cannabinoid receptor CB1 |  |  | concentration not given |  | activity | inactive
CC(CCC(=O)O)C1CCC2C3CCC4CC(OC(=O)C(N)CC(=O)O)CCC4(C)C3CCC12C (centres unmarked) | ST6GAL1 (Homo sapiens, UniProt P15907) |  |  |  | relative to: IC50 ST3GAL1 over IC50 ST6GAL1 | selectivity ratio | 3
CC(=O)N[C@H]1[C@@H](OC[C@H](NC(=O)CNC(=O)[C@@H]2CCCN2C(=O)[C@H](C)NC(=O)[C@@H]2CCCN2C(=O)[C@@H](N)CCCNC(=N)N)C(=O)N[C@H](C(=O)N[C@@H](C)C(=O)N2CCC[C@H]2C(=O)N2CCC[C@H]2C(=O)N[C@@H](C)C(=O)N[C@@H](Cc2c[nH]cn2)C(=O)NCC(=O)O)[C@@H](C)O)O[C@H](CO)[C@H](O)[C@@H]1O | 14 A monoclonal antibody | SPR |  |  |  | koff | 0.0514 s⁻¹
CCCC[C@@H](C(=O)N[C@@H](CC(=O)O)C(=O)N[C@@H](Cc1ccccc1)C(N)=O)N(C)C(=O)[C@@H](Cc1c[nH]c2ccccc12)NC(=O)CNC(=O)[C@@H](Cc1ccccc1)NC(=O)[C@@H](N)Cc1ccc(O)cc1 | delta opioid receptor | mouse vas deferens |  |  |  | activity | 0.45 nM
CC(C)C[C@@H](N)C(=O)NCC(=O)N[C@H](C)C(=O)N[C@H](CO)C(=O)N[C@H](Cc1c[nH]c2ccccc12)C(=O)N[C@H](Cc1c[nH]cn1)C(=O)N[C@H](CCCNC(=N)N)C(=O)N1CCC[C@@H]1C(=O)N[C@H](CC(=O)O)C(=O)N[C@H](CCCCN)C(=O)O | CXCR4 (Homo sapiens, UniProt P61073) | competitive antibody binding |  | concentration not given | relative to: compound over parent V1 peptide | binding improvement | 13.7 fold
COc1ccc2c(c1OC)CO/C(=C\c1cc[n+](Cc3ccc(F)cc3)cc1)C2=O | ACHE (Homo sapiens, UniProt P22303) |  |  |  | relative to: BChE IC50 over AChE IC50 | selectivity ratio | > 230
CC(C)C[C@@H](NC(=O)[C@@H](Cc1ccccc1)NC(=O)[C@H](N)Cc1ccccc1)C(=O)N[C@H](CCCCN)C(=O)N1CCC(N)(C(=O)O)CC1 | mu-opioid receptor |  |  | concentration not given, selective for kappa-opioid receptor |  | activity | inactive
CC(C)[C@@H](CN1CC[C@@](C)(c2cccc(C(N)=O)c2)[C@@H](C)C1)NC(=O)[C@H]1Cc2ccc(O)cc2CN1 | OPRM1 (Homo sapiens, UniProt P35372) | antagonist |  | added: DAMGO |  | Ke | 21 ± 3 nM
Cc1cc(O)cc(C)c1C[C@H](N)C(=O)N[C@@H]1CCNc2ccc(Cc3ccccc3)cc21 | Oprm1 (Rattus norvegicus, UniProt P33535) | agonist |  | concentration not given |  | stimulation | 81%
CSCC[C@H](NC(=O)[C@H](Cc1ccccc1)NC(=O)CNC(=O)[C@@H](C)NC(=O)[C@@H](N)Cc1ccc(O)cc1)C(=O)N1CCC[C@H]1C(=O)N[C@@H](CC(C)C)C(=O)N[C@@H](Cc1c[nH]c2ccccc12)C(=O)NCc1cc(C(F)(F)F)cc(C(F)(F)F)c1 | OPRM1 (Cavia porcellus, UniProt P97266) | agonist | guinea pig ileum |  | relative to: PL-017 | Emax | 92.5 ± 3.1%
CC(CCC(=O)NC(CCCCNC(=O)C(F)(F)F)C(=O)O)C1CCC2C3C(O)CC4CC(O)CCC4(C)C3CC(O)C12C (centres unmarked) | SLC10A2 (Homo sapiens, UniProt Q12908) | substrate |  |  |  | Km | 39.4 ± 23.8 µM
CSCC[C@H](NC(=O)[C@H](Cc1ccccc1)NC(=O)CNC(=O)[C@@H](C)NC(=O)[C@@H](N)Cc1ccc(O)cc1)C(=O)N1CCC[C@H]1C(=O)N[C@@H](CC(C)C)C(=O)N[C@@H](Cc1c[nH]c2ccccc12)C(=O)NCc1cc(C(F)(F)F)cc(C(F)(F)F)c1 | OPRD1 (Homo sapiens, UniProt P41143) | agonist |  |  |  | Emax | 60 ± 2%
CC(C)C[C@@H]1NC(=O)[C@H](Cc2ccc(O)cc2)NC(=O)[C@H](CO)NC(=O)[C@H](C)NC(=O)[C@@H](NC(=O)[C@@H]2CCCN2C(=O)[C@H](CC(N)=O)NC(=O)[C@H](Cc2ccc(O)cc2)NC(=O)[C@H](CCCCN)NC(=O)[C@H](C)NC(=O)[C@H](C)NC(=O)[C@@H](N)CC(N)=O)CSC1=O | Accessory gene regulator protein C (Staphylococcus epidermidis, UniProt Q5HMY3) | group-I agr signalling, inhibitor |  | concentration not given |  | agr system activity | inhibited
CN1CCN(c2nc3ccccc3nc2Cl)CC1 | Serotonin 3 (5-HT3) receptor (Homo sapiens, UniProt O95264+P46098) | ion current |  |  | relative to: 5-HT | relative maximal response | 0.03 ± 0.02
CCCCCCCc1c(C(=O)NCCc2ccc(N3CCCCC3)cc2)[nH]c2ccc(Cl)cc12 | CNR1 (Homo sapiens, UniProt P21554) | allosteric modulator, radioligand binding |  | added: [3H]CP55,940 |  | cooperativity factor alpha | 7.4
Cc1cc(O)cc(C)c1C[C@H](N)C(=O)N[C@H](C)C(=O)N[C@@H](Cc1ccccc1)C(=O)N[C@@H](CCC(=O)O)C(=O)N[C@H](C(=O)N[C@H](C(=O)NCC(N)=O)C(C)C)C(C)C | Oprd1 (Rattus norvegicus, UniProt P33533) |  |  |  | relative to: Ki mu over Ki delta | selectivity ratio | 10
NS(=O)(=O)c1ccc(N2N=C(C(F)(F)F)CC2c2ccc(F)cc2F)cc1 (centres unmarked) | COX-2 sheep placenta | inhibitor |  |  | relative to: COX-1 IC50 over COX-2 IC50 | selectivity ratio | > 100 fold
COc1cc(O)c2c(c1)/C=C/C[C@H](O)[C@H](O)C(=O)/C=C\C[C@H](C)OC2=O | BMP2K (Homo sapiens, UniProt Q9NSY1) |  |  | 10 µM | relative to: control | remaining binding | 3.8%
